Results of several laboratories.
Protocols differ between the studies behind these lines. ± gives the spread as reported.

Structure (SMILES)	assay	test system	setting	Cmax
CNCc1ccc(-c2[nH]c3cc(F)cc4c3c2CCNC4=O)cc1		human cancer patients, plasma	intravenous, 18 mg/m2, day 4, with: temozolomide 200	863 ng/mL
O=C(c1cccnc1-c1ccncc1)N1CCC(O)(Cc2ccccc2)CC1		healthy human, plasma	oral, 600 mg once daily, day 1, arithmetic mean	3060 ng/mL
CS(=O)(=O)n1cc2c(n1)CN([C@H]1CO[C@H](c3cc(F)ccc3F)[C@@H](N)C1)C2		healthy male human, plasma	oral, 100 mg once weekly, day 15, fasted, geometric mean	2400 nM
COc1ccnc(C[S+]([O-])c2nc3ccc(OC(F)F)cc3[nH]2)c1OC (stereo not drawn)		human, CYP2C19 intermediate metabolizers, plasma	oral, 40 mg/day, day 1	3940 ± 440 ng/mL
CN[C@@H]1COc2c(S(=O)(=O)NC(=O)Nc3c4c(cc5c3CCC5)CCC4)cnn2C1		human	oral, 600 mg, high-fat meal, geometric LS mean	23100 ng/mL
CCCCC1(CCCC)CN(c2ccccc2)c2cc(SC)c(OCC(=O)N[C@@H](C(=O)NCC(=O)O)c3ccccc3)cc2S(=O)(=O)C1	LC-MS/MS	human, plasma	oral, 10 mg, single dose, fasted	1.36 ng/mL
COc1cc(C(=O)O)ccc1NC(=O)[C@@H]1N[C@@H](CC(C)(C)C)[C@](C#N)(c2ccc(Cl)cc2F)[C@H]1c1cccc(Cl)c1F		human, plasma	oral, 200 mg, steady state, with: venetoclax 600 mg	4130 ng/mL
O=C(c1ccc(OCCN2CCCCC2)cc1)c1c(-c2ccc(O)cc2)sc2cc(O[C@@H]3O[C@H](C(=O)O)[C@@H](O)[C@H](O)[C@H]3O)ccc12		human, plasma	oral, 60 mg raloxifene, chronic green tea	9 nM
Cc1cccc(C)c1OCC(=O)N[C@@H](Cc1ccccc1)[C@@H](O)C[C@H](Cc1ccccc1)NC(=O)[C@H](C(C)C)N1CCCNC1=O		HIV/HCV coinfected humans, plasma	oral, dose not given, steady-state median, with: lopinavir/ritonavir twice daily	11000 ng/mL
C=CC(=O)Nc1cc(Nc2ncc(C(=O)OC(C)C)c(-c3cn(C)c4ccccc34)n2)c(OC)cc1N(C)CCN(C)C		human, plasma	oral, 160 mg, arithmetic mean, alone	70 ng/mL
CNC(=O)c1c(C)oc2cc(Oc3ncnc4cc(OC)c(OC)cc34)ccc12		human, plasma	oral, 5 mg, fasted	117 ng/mL
CC[C@@]1(O)C(=O)OCc2c1cc1n(c2=O)Cc2cc3c(CN(C)C)c(O)ccc3nc2-1		human patients, plasma	oral, 4 mg, geometric mean, with: pazopanib 800 mg	16.5 ng/mL
CO[C@H]1C[C@@H]2CC[C@@H](C)[C@@](O)(O2)C(=O)C(=O)N2CCCC[C@H]2C(=O)O[C@H]([C@H](C)C[C@@H]2CC[C@@H](OC(=O)C(C)(CO)CO)[C@H](OC)C2)CC(=O)[C@H](C)/C=C(\C)[C@@H](O)[C@@H](OC)C(=O)[C@H](C)C[C@H](C)/C=C/C=C/C=C/1C		human, whole blood	intravenous, 60 mg/m2, cycle 1, with: valproic acid	1210 ng/mL
Cc1nc(-c2ccc(OCC(C)C)c(C#N)c2)sc1C(=O)O		human, plasma	oral, 40 mg, with: verinurad 10 mg	628 ng/mL
CN1CC(=O)N2[C@H](c3ccc4c(c3)OCO4)c3[nH]c4ccccc4c3C[C@@H]2C1=O		human	oral, 40 mg, fixed-dose combination, fasted, geometric mean, with: macitentan 10 mg	469 ng/mL
CCOc1ccc(Cc2cc([C@@H]3S[C@H](CO)[C@@H](O)[C@H](O)[C@H]3O)c(OC)cc2C)cc1		human, plasma	oral, 5 mg/day, day 7, multiple dose before breakfast	248 ± 45.1 ng/mL
N#Cc1ccnc(N2C(=O)CC[C@H]2C(=O)N(c2cncc(F)c2)[C@H](C(=O)NC2CC(F)(F)C2)c2ccccc2Cl)c1		human patients, plasma	oral, 500 mg once daily, induction cycle 1 day 14, mean, with: chemotherapy	8210 ng/mL
C=CC(=O)N1CCC([C@@H]2CCNc3c(C(N)=O)c(-c4ccc(Oc5ccccc5)cc4)nn32)CC1		human	oral, 480 mg single dose, mean	353 ng/mL

Repeated from above:
Structure (SMILES)	assay	test system	setting	Cmax
C=CC(=O)Nc1cc(Nc2ncc(C(=O)OC(C)C)c(-c3cn(C)c4ccccc34)n2)c(OC)cc1N(C)CCN(C)C		human, plasma	oral, 160 mg, arithmetic mean, alone	70 ng/mL
N#Cc1ccnc(N2C(=O)CC[C@H]2C(=O)N(c2cncc(F)c2)[C@H](C(=O)NC2CC(F)(F)C2)c2ccccc2Cl)c1		human patients, plasma	oral, 500 mg once daily, induction cycle 1 day 14, mean, with: chemotherapy	8210 ng/mL
